Published values of several laboratories.
Several values in a cell are separate wells, animals, samples, runs or records.
Cell line: SK-MEL-2

For `CCN(CC)c1ccc(C=NNC(=O)CSc2nc3ccccc3c(=O)n2Cc2ccc(S(N)(=O)=O)cc2)c(O)c1`, the TGI was over 100000 nM (NCI five-dose screen).
For `C#C[C@@]1(O)[C@@H](CO)O[C@@H](n2cc(I)c3c(N)ncnc32)[C@@H]1O`, the TGI was 1590 nM and 1950 nM (SRB; NCI-60 screen).
The cell growth of `Cc1cc(C)n(-c2nc(-c3ccc(Cl)cc3)c3c(NC(=O)c4ccccc4)nnc-3[nH]2)n1` is reported as 86.4% (SRB; 10 µM, NCI60 single-dose screen; baseline: untreated).
For `CCOc1ccc(-c2nc3cc(-c4nc5cc(N6CCN(C)CC6)ccc5[nH]4)ccc3[nH]2)cc1OCC`, the growth percent was -17.5% (SRB; 10 µM, 48 h).
`O=C(Nc1nnc2[nH]c(=S)[nH]c(-c3ccc(Cl)cc3)c1-2)c1ccccc1` gave a cell growth of 108% (SRB; 10 µM, NCI60 single-dose screen; baseline: untreated).
The growth percent of `CCCN1CCN(c2ccc3nc(-c4ccc5nc(-c6cc(OC)ccc6OC)[nH]c5c4)[nH]c3c2)CC1` is reported as 118% (SRB; 10 µM, 48 h).
`C#C[C@@]1(O)[C@@H](CO)O[C@@H](n2ccc3c(N)ncnc32)[C@@H]1O` has a TGI of 6320 nM (SRB; NCI-60 screen).
For `Cc1cc(C)n(C(=S)[S][Au][PH](CCCCCC[PH]([Au][S]C(=S)n2nc(C)cc2C)(c2ccccc2)c2ccccc2)(c2ccccc2)c2ccccc2)n1`, the log10 TGI was over -4 (cell growth, NCI-60 screen; melanoma).
`CCCCN1CCN(c2ccc3[nH]c(-c4ccc5[nH]c(-c6ccc(C(F)(F)F)cc6)nc5c4)nc3c2)CC1` gave a growth percent of -47.5% (SRB; 10 µM, 48 h).
With `CC(C)(C)c1nc(-c2cccc(NS(=O)(=O)c3c(F)cccc3F)c2F)c(-c2ccnc(N)n2)s1` the EC200 was 14 nM (ERK phosphorylation, activator, Western blot, refers to: p-ERK/total ERK; 1 h, concentration for 200% induction).
With `CCOC(=O)CSc1nc(-c2ccc(Cl)cc2)c2c(NC(=O)c3ccccc3)nnc-2[nH]1` the cell growth was 107% (SRB; 10 µM, NCI60 single-dose screen; baseline: untreated).
For `CCCS(=O)(=O)Nc1ccc(F)c(C(=O)c2c[nH]c3ncc(-c4ccc(Cl)cc4)cc23)c1F`, the EC200 was 68 nM (ERK phosphorylation, activator, Western blot, refers to: p-ERK/total ERK; 1 h, concentration for 200% induction).
With `C#C[C@@]1(O)[C@@H](CO)O[C@@H](n2cc(F)c3c(N)ncnc32)[C@@H]1O` the TGI was 2870 nM (SRB; NCI-60 screen).
The growth percent of `CCCN1CCN(c2ccc3[nH]c(-c4ccc5[nH]c(-c6ccc(OCC)c(OCC)c6)nc5c4)nc3c2)CC1` is reported as -73.9% (SRB; 10 µM, 48 h).
The GI50 of `Cn1cncc1C1=CN(c2ncnc3[nH]cnc23)CCS1` is reported as 8900 nM (melanoma cell line).
`O=C(Nc1nnc2n3c(Cc4ccccc4)n[nH]c3nc(-c3ccc(Cl)cc3)c1-2)c1ccccc1` gave a cell growth of 113% (SRB; 10 µM, NCI60 single-dose screen; baseline: untreated).
With `CCCCN1CCN(c2ccc3[nH]c(-c4ccc5[nH]c(-c6ccc(OCC)c(OCC)c6)nc5c4)nc3c2)CC1` the growth percent was 13.1% (SRB; 10 µM, 48 h).
